Published values gathered from unrelated publications.
Numbered parts are unrelated; each lists some results of a single study.

Set 1 — method: RNA Bind-n-Seq; molecule type: RNA; matrix: in vitro; tested at: 365 nM; relative to: no-protein control; reading: higher = stronger binding
Target: RNA binding protein fox-1 homolog 2, RRM domain, GST-SBP tag (RBFOX2, Homo sapiens, UniProt O43251-10, residues 100-194)
Setting: natural RNA segment, single round, ends assumed
Residues (chain): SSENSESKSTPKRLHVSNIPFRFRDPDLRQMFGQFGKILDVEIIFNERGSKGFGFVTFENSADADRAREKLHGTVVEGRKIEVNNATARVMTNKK
Strand | RBNS enrichment (R)
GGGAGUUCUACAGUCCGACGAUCUUGAAGAGGCAGAGUGAUUUAGAGAACGAAAUCAGAACCUGGGAACACCAUGACUACUUCAUUUCUAGCUAAAUCAGAACUGCCUUCAACACUGGAGAAAGGGAGAAGUAUGGAAUUCUCGGGUGCCAA | 0.433
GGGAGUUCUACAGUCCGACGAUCCACCCCGGGCUCUCUGCUGUACAUAUUCGAGACUAGUUUUUAUUCCUUGUGAAGAUGAUAUACUAUUUUUGUUAAGCGUGUCUGUAUUUAUGUGUGAGGAGCUGCUGGCUUGGAAUUCUCGGGUGCCAA | 0.393
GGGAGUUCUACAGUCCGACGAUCUCGAGCCCUUGGUGGGGACAGCUGGGGAGAUGGCAGUGCAGGCUGGAACCUGGGCUGCCCCAGAACACAGUCCAUUACGAUAGAAACACUAAUUGAGCAUGUGCGUGGGGUGGAAUUCUCGGGUGCCAA | 2.71
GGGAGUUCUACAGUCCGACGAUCUGAAAGAAGCAUCCUGGAAACCAUGAAGUAUUCUACUAUGAAGGGCGCAUCUGCCCUGGUCAGCUGUUUCUCGAAGGGAGUGAUCUUAUCGAUAGAGGUAGAAAUGGUUUUGGAAUUCUCGGGUGCCAA | 0.292
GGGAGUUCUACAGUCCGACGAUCACCUCUCUCCUCUCCCCUCACCCUCCUGCCCCUGGCCACUGCAGGAUCAGGAGGGGAGAAGAAGGAGCCUCUGCUGCCUCCCAGGCUGCUGGGACUGGGCUGGUUUUGUCUGGAAUUCUCGGGUGCCAA | 0.434
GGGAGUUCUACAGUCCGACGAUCUUAAAAAUGUUUAAAUAUUUUGCUUUGCUAAUGUGCUGAUCCGCACUAACUCAUCUUUGCAAAAGGAACUGCUCCCUCGGCGUGCCCCAGCUGGGGCCUCUGAAGGGAUUUGGAAUUCUCGGGUGCCAA | 0.232
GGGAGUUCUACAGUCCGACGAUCGGGAAAUGGCCUUCCCGCCGGAGGCCAGCUAUCUGCCUGACAGGCUGUGACUCUUCUCUCAACCUUGGCCUUCUCCCCUCUUCUGAGCUAGUUGGUUGAAUUUUUUUUAAUGGAAUUCUCGGGUGCCAA | 0.341
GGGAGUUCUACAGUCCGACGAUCUCUCCAUUUCUCUGCCAAGCCCAUUUACCCCCACCUCAUGCAUCCCAAGGCUCUACUGGGUCCCUGGACCUAACCCUGCUUUCAUCCUGGUGGCCUUAACUACAGUGGAGUGGAAUUCUCGGGUGCCAA | 1.66
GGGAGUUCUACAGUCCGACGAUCCCAGGAUGGAUAAAUCCACCGAGAUAAGGGUUUUGGUCACUGUCUCCACCUCAGUUCCUCAGGGCUGUUGGCCACCCUAUGACUAACUGGAAGAGGACACGCCAGAGCUUUGGAAUUCUCGGGUGCCAA | 0.441
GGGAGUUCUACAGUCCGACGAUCAGACCCUGCCUGUAUUCAGAAAUGUGGAACAGAGAAAUGGUGGGCCAGGAGUGAAGGCAGAUUUAGGGAAAUAAACAUUGUGUGUUAAAUCUUUUACUGACCUGGGUUUUUGGAAUUCUCGGGUGCCAA | 0.748
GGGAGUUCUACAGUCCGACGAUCAGUUUUGUAGUUCCUCAGGCCUCUAAUUUAUUUUUUGCUUUCUGCUUUAUUGAUCUUUUGCAUGUCCCCCAAAGCCAGAAUCUGCUCAUGGAGGAAGGAAGGCUAAGAACUGGAAUUCUCGGGUGCCAA | 9.96
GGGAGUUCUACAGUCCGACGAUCCAGAGAUGUCUUAACUUGUCAGGAGUCCUUACCUGACAUGACCCUGUUUCAACAGGAAAGUAGAUGUUUUGUGCUCCUUUUUGGAUUUUAUCUUCUUGCACAUGUUUGUAUGGAAUUCUCGGGUGCCAA | 12.4

Set 2 — method: protein binding microarray; molecule type: double-stranded DNA, one strand shown; matrix: in vitro; tested at: not given; relative to: not given; reading: higher = stronger binding
Target: Histone acetyltransferase KAT6A, winged helix 2, GST fusion (KAT6A, Homo sapiens, UniProt Q92794, residues 85-181)
Setting: 8-mer, flanks averaged, mean of 2 arrays, mostly near background
Construct (chain): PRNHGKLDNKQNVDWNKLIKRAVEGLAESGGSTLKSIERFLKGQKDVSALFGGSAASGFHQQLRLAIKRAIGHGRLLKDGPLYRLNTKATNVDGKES
Strand | E-score
CTTCGACC | 0.116
GTAGACTA | -0.202
ACACAGCA | 0.153
ATGCGGCA | 0.00047
ACCTTGCT | 0.0227
ATCACTGC | 0.23
CGTTCCTA | -0.0194
ACCACATA | -0.0618
GGGTGCGA | -0.126
AGTGTTCC | -0.0705
AGCGTAGC | 0.157
AATTGAGA | -0.0126
GAGCGAGA | 0.125
CTGAGCAG | 0.0562
CTGCGCCA | 0.131
AAAAGGCC | -0.0397
ACTAAAGC | 0.183
AACCTCGT | -0.136
GGTGTCGA | 0.024
ACGTCTCA | -0.128
AGACTCAT | -0.332

Set 3 — method: aptamer microarray, sandwich; molecule type: DNA with 2'F-ANA; matrix: in vitro; tested at: 200 nM; added: Cy3 exosite-II aptamer, 400 nM; reading: higher = stronger binding; strand: GGTTGGTGTGGTTGG
Target: Prothrombin, mature alpha-thrombin (F2, Homo sapiens, UniProt P00734)
Setting: whole 15-mer aptamer, many near background
Modification | mean fluorescence intensity [a.u.]
2'F-ANA at 2 7 8 9 10 11 13 | 113
2'F-ANA at 1 4 5 6 8 9 10 13 15 | 48.4
2'F-ANA at 4 7 9 13 14 | 179
2'F-ANA at 2 3 5 6 7 9 12 | 171
2'F-ANA at 1 2 4 5 9 10 11 14 | 141
2'F-ANA at 3 6 8 14 | 587
2'F-ANA at 3 5 7 10 12 13 14 15 | 50.5
2'F-ANA at 1 2 5 6 8 12 13 | 82.7
2'F-ANA at 2 3 4 7 8 9 12 14 15 | 322
2'F-ANA at 4 8 11 12 13 14 15 | 126
2'F-ANA at 1 4 5 7 10 11 13 14 15 | 48.2
2'F-ANA at 1 4 7 8 10 14 15 | 47.1
2'F-ANA at 1 3 5 9 11 13 14 | 46.6
2'F-ANA at 2 6 10 15 | 111
2'F-ANA at 1 3 6 7 8 9 10 13 14 | 68.2
2'F-ANA at 1 2 5 6 7 8 11 12 15 | 110
2'F-ANA at 1 7 8 10 14 15 | 46.9
2'F-ANA at 3 4 6 8 12 | 1010

Set 4 — method: protein-binding microarray; molecule type: double-stranded DNA, one strand shown; matrix: in vitro; tested at: 250 nM; setting: 60-bp whole probe; added: salmon DNA 0.4 mg/ml; relative to: random background probes; reading: higher = stronger binding; constant ends, left off below: GCCTAGCAC … GTCTTGATTCGCTTGACGCTGCTG
Target: Interferon regulatory factor 7, full length, phosphomimetic (IRF7, Homo sapiens, UniProt Q92985, residues 1-503, S101K/S471D/S472D/S475D/S476D/S477D/S483D/S484D/S487D)
Construct (chain): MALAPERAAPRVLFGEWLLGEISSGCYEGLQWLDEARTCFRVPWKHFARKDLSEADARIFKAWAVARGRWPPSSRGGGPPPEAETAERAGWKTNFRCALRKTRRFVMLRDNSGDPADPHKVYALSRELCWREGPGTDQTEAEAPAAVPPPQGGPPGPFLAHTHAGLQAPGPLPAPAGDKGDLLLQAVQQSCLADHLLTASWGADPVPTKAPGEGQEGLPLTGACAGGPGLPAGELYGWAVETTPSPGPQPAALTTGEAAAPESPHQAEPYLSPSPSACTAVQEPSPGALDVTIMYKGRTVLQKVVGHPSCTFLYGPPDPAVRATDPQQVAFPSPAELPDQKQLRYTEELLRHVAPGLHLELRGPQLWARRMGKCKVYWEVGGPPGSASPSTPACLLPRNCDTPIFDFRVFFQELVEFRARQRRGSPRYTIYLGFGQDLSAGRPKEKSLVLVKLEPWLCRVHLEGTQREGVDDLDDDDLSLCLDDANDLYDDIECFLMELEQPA
Strand | log fluorescence [z-score]
GACGCTATCCTTCTCCTGACGTGCTAG | 0.109
TTAGGACTGGGACTAGGTTAGTGCTAG | -0.186
TCAGCTATACCACTCTTACTGTGCTAG | 0.0284
TCAGATTTTTTTTCCTAACTGTGCTAG | 0.843
GACGGTATCGGACTGGGGAAGTGCTAG | -0.142
CAAACACTAATTTTCAATTCGTGCTAG | 0.453
TCATACATCTATGTAGAACTGTGCTAG | 0.0654
GACGGTATCGGGGTTCGGGACGTGCTA | -0.188
GACGGTATCGGTAACGGGACGTGCTAG | -0.0447
TTTAAATTCTAATTAGAATTGTGCTAG | 0.436
GACGGTATCCTACTGCTGCCGTGCTAG | -0.312
GACGGTTTCGGGTCTGGGGACGTGCTA | 8.35
GACGATTTCGGGTATCGAAACGTGCTA | 1.39
TTAGGTTTCCATCTCCTTTAGTGCTAG | 3.28
TTAGGTTTCGGGTATCGGTAAGTGCTA | 7.77
TTAGGACTGGGTTATCGGTTAGTGCTA | 0.251
GGCAAAAACATGAACAGACAGTGCTAG | -0.74
TCAACTATTGCTTCCTCACTGTGCTAG | 0.6
TTAGGTCTCGGAATGGGTTAGTGCTAG | 1.87
GACGGTCTCCTACGGCTGACGTGCTAG | -0.534
GTATTTTTCTAAACCATTTTGTGCTAG | 1.66
GACGATTTTGGGTATCGAGACGTGCTA | 0.0386
TTAGGACTGGGGTATCCGTTAGTGCTA | -0.242
GACCGTATCGGTCTCGGGACGTGCTAG | 1.04
TTAGATATCCTACTGCTTTAGTGCTAG | -0.00786

Mixed results
Substance | target | test | system | conditions | how to read | measurement | result
PhoQ, residues 284 288 289 292 302 303 SCEHLI | PhoP, residues 12 14 15 18 19 NMSSL (Escherichia coli, UniProt P23836) | Sort-seq, item: YFP reporter | E. coli | PhoQ-PhoP variant library, added: 10 µM Mg2+ | relative to: high Mg2+ state, higher = stronger signaling | fold induction | 0.137
